Assay results of several laboratories.
Each line is one published result; not all experiments were run side by side.
PPO3: PPO3 (Agaricus bisporus, UniProt C7FF04)
UniProt C7FF04, sequence (whole entry, looked up): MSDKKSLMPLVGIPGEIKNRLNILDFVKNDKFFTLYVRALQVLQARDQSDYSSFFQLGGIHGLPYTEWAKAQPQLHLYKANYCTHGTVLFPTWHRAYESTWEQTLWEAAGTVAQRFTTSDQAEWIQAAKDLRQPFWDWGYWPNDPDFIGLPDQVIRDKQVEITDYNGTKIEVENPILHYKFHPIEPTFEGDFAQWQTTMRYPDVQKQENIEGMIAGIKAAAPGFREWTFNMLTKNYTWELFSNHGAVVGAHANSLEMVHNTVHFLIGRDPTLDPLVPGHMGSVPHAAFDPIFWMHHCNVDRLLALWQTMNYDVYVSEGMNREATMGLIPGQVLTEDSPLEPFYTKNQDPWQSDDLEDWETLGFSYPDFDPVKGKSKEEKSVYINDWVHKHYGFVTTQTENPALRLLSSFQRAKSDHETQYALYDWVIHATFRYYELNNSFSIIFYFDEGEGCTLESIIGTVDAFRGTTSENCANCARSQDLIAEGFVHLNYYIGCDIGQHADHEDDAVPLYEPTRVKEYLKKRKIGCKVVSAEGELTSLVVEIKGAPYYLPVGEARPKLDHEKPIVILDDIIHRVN
CSK: Tyrosine-protein kinase CSK (CSK, Homo sapiens, UniProt P41240)
UniProt P41240, sequence (whole entry, looked up): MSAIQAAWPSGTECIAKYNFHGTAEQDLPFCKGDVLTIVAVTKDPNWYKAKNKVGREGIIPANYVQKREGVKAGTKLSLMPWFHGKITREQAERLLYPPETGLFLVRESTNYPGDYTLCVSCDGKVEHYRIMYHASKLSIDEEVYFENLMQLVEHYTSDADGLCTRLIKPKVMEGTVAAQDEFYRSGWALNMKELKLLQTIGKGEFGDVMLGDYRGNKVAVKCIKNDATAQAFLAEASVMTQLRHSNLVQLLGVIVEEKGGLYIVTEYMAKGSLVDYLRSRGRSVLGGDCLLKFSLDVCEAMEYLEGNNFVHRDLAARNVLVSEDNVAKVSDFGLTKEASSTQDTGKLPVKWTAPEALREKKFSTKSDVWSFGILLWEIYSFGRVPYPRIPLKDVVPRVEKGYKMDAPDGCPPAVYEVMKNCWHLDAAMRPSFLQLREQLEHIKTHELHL
UniProt P07333, sequence (whole entry, looked up): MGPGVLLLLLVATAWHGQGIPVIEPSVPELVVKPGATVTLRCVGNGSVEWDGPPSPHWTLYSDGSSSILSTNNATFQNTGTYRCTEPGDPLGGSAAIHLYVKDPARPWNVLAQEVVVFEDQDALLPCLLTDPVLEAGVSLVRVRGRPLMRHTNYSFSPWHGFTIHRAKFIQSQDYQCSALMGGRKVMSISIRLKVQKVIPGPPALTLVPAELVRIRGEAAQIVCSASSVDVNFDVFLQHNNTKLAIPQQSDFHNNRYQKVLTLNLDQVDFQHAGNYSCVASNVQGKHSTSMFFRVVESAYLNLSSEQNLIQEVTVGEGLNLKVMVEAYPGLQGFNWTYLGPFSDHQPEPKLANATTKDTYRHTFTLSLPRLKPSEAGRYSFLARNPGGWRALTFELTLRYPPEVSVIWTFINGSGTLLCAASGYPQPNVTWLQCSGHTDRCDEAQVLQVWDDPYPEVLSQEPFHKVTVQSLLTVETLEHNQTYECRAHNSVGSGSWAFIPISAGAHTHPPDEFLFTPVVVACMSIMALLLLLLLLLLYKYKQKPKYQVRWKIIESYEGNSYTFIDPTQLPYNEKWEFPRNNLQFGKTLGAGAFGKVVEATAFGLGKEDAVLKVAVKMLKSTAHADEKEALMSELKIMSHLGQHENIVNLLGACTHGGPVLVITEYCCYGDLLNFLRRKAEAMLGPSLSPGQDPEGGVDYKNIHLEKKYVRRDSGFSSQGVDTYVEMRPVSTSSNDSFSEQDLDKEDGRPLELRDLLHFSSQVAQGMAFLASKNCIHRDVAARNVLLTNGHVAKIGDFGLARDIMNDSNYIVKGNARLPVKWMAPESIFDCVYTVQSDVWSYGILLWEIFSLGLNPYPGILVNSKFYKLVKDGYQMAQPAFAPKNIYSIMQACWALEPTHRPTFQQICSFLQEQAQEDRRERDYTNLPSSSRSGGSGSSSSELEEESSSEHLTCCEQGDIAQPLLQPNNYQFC
UniProt P14780, sequence (whole entry, looked up): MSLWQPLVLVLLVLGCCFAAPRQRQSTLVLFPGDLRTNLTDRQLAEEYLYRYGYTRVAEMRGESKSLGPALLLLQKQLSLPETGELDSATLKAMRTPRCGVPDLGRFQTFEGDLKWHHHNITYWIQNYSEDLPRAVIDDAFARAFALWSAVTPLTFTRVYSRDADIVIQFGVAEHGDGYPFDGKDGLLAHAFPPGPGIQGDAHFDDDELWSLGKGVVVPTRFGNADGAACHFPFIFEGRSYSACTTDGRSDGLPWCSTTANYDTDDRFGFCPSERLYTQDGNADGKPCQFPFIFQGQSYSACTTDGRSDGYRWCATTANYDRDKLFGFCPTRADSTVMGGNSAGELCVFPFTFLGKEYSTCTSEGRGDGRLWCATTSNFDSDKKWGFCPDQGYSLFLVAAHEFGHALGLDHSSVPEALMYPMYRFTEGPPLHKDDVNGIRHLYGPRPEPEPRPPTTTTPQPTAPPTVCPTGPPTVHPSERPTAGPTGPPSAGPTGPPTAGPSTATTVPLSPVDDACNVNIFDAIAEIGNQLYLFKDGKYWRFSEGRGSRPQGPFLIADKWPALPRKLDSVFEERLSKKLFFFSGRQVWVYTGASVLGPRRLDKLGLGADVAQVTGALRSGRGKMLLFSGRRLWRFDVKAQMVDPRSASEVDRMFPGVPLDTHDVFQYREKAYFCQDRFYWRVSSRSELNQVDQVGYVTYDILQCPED

With `CC1(C)CCN(Cc2ccc(C(=O)NC[C@]3(O)CCCN(c4cc(NCc5ccccc5)ncn4)C3)c(O)c2)CC1` the remaining activity was 102% (Macrophage colony-stimulating factor 1 receptor (CSF1R, Homo sapiens, UniProt P07333); kinase activity, radiometric; 10 µM, together with: 10 µM ATP).
For `CC(C)C[C@H](NC(=O)[C@H](CCC(=O)O)NC(=O)[C@@H](N)CS)C(=O)N[C@@H](CC(N)=O)C(=O)O`, the remaining activity was 77.6% (PPO3; enzyme activity, inhibitor; 25 µM).
The remaining activity of `O=C(Cc1c(-c2ccccc2)n[nH]c1-c1ccccc1)NO` is reported as 81% (Matrix metalloproteinase-9 (MMP9, Homo sapiens, UniProt P14780); enzyme activity, inhibitor; 10 µM).
For `CC(=O)N[C@@H](Cc1c[nH]c2ccccc12)C(=O)N[C@@H](Cc1c[nH]c2ccccc12)C(=O)N[C@@H](Cc1c[nH]c2ccccc12)C(=O)N[C@@H](Cc1c[nH]c2ccccc12)C(=O)N[C@@H](Cc1c[nH]c2ccccc12)C(=O)N[C@@H](Cc1c[nH]c2ccccc12)C(=O)NCCCC[C@@H]1NC(=O)[C@H](CCCNC(=N)N)NC(=O)[C@H](CCCNC(=N)N)NC(=O)[C@H](CCCNC(=N)N)NC(=O)[C@H](CCCNC(=N)N)NC(=O)[C@H](CCCNC(=N)N)NC(=O)[C@H](CCCNC(=N)N)NC1=O`, the remaining activity was 91.8% (CSK; kinase activity, Reaction Biology radiometric; concentration not given, together with: ATP 200 µM; relative to: DMSO).
The remaining activity of `N=C(N)NCCC[C@H](NC(=O)[C@@H](N)CS)C(=O)N[C@@H](CC(N)=O)C(=O)N[C@@H](CC(N)=O)C(=O)O` is reported as 72.9% (PPO3; enzyme activity, inhibitor; 50 µM).
`O=C(CCCC[C@H]1CCSS1)NCCC(=O)N[C@@H](Cc1cnc[nH]1)C(=O)O` (mixture of isomers) has a remaining activity of 7.7% (Transient receptor potential cation channel subfamily A member 1 (Trpa1, Mus musculus, UniProt Q8BLA8); ion current, inhibitor, patch clamp; CHO; 30 µM).
With `NC(=O)C[C@H](NC(=O)[C@H](CC(N)=O)NC(=O)[C@H](CCC(=O)O)NC(=O)[C@@H](N)CS)C(=O)O` the remaining activity was 80.8% (PPO3; enzyme activity, inhibitor; 25 µM).
`COC(=O)CN1CCCc2cc3cc(C(=O)NC(Cc4ccc(C)cc4)C(=O)NCC=CS(=O)(=O)c4ccccc4)c(=O)oc3cc21` (stereo not drawn) gave a remaining activity of 53% (Cathepsin B (CTSB, Homo sapiens, UniProt P07858); enzyme activity, inhibitor; 5 µM, 60 min, together with: Z-Arg-Arg-pNA; relative to: uninhibited control).
`CC(=O)N[C@@H](Cc1c[nH]c2ccccc12)C(=O)N[C@@H](Cc1c[nH]c2ccccc12)C(=O)N[C@@H](Cc1c[nH]c2ccccc12)C(=O)N[C@@H](Cc1c[nH]c2ccccc12)C(=O)N[C@@H](Cc1c[nH]c2ccccc12)C(=O)N[C@@H](Cc1c[nH]c2ccccc12)C(=O)N[C@@H](Cc1c[nH]c2ccccc12)C(=O)NCCCC[C@@H]1NC(=O)[C@H](CCCNC(=N)N)NC(=O)[C@H](CCCNC(=N)N)NC(=O)[C@H](CCCNC(=N)N)NC(=O)[C@H](CCCNC(=N)N)NC(=O)[C@H](CCCNC(=N)N)NC1=O` gave a remaining activity of 95.1% (Proto-oncogene tyrosine-protein kinase Src (SRC, Homo sapiens, UniProt P12931); enzyme activity, inhibitor, radiometric; 5 µM).
The remaining activity of `CCCCCCCCCCCCCCCc1ccc(COP(=O)(O)O)cc1` is reported as 85.2% (Autotaxin (ENPP2, Homo sapiens, UniProt Q13822); inhibitor; 10 µM, 2 h, together with: FS-3 1 µM; relative to: control).
For `N=C(N)NCCC[C@@H]1NC(=O)[C@H](Cc2c[nH]c3ccccc23)NC(=O)[C@H](CCCNC(=N)N)NC(=O)[C@H](Cc2c[nH]c3ccccc23)NC(=O)[C@H](CCCNC(=N)N)NC(=O)[C@H](Cc2c[nH]c3ccccc23)NC(=O)[C@H](CCCNC(=N)N)NC(=O)[C@H](Cc2c[nH]c3ccccc23)NC(=O)[C@H](CCCNC(=N)N)NC(=O)[C@H](Cc2c[nH]c3ccccc23)NC(=O)[C@H](CCCNC(=N)N)NC(=O)[C@H](Cc2c[nH]c3ccccc23)NC(=O)[C@H](CCCNC(=N)N)NC(=O)[C@H](Cc2c[nH]c3ccccc23)NC(=O)[C@H](CCCNC(=N)N)NC(=O)[C@H](Cc2c[nH]c3ccccc23)NC(=O)[C@H](CCCNC(=N)N)NC(=O)[C@H](Cc2c[nH]c3ccccc23)NC1=O`, the remaining activity was 7.7% (CSK; kinase activity, Reaction Biology radiometric; concentration not given, together with: ATP 200 µM; relative to: DMSO).
The remaining activity of `CCCc1c(OC)c(=O)c2c(O)cc(OC)c3c4c(OC)cc(O)c5c(=O)c(OC)c(CCC)c(c1c23)c54` is reported as > 85% (protein kinase C catalytic subunit; 50 µM).

Excerpt of the above:
For `CC(=O)N[C@@H](Cc1c[nH]c2ccccc12)C(=O)N[C@@H](Cc1c[nH]c2ccccc12)C(=O)N[C@@H](Cc1c[nH]c2ccccc12)C(=O)N[C@@H](Cc1c[nH]c2ccccc12)C(=O)N[C@@H](Cc1c[nH]c2ccccc12)C(=O)N[C@@H](Cc1c[nH]c2ccccc12)C(=O)NCCCC[C@@H]1NC(=O)[C@H](CCCNC(=N)N)NC(=O)[C@H](CCCNC(=N)N)NC(=O)[C@H](CCCNC(=N)N)NC(=O)[C@H](CCCNC(=N)N)NC(=O)[C@H](CCCNC(=N)N)NC(=O)[C@H](CCCNC(=N)N)NC1=O`, the remaining activity was 91.8% (CSK; kinase activity, Reaction Biology radiometric; concentration not given, together with: ATP 200 µM; relative to: DMSO).
`COC(=O)CN1CCCc2cc3cc(C(=O)NC(Cc4ccc(C)cc4)C(=O)NCC=CS(=O)(=O)c4ccccc4)c(=O)oc3cc21` (stereo not drawn) gave a remaining activity of 53% (Cathepsin B (CTSB, Homo sapiens, UniProt P07858); enzyme activity, inhibitor; 5 µM, 60 min, together with: Z-Arg-Arg-pNA; relative to: uninhibited control).
